{"data": "Measurements of several laboratories", "note": "Every numbered part comes from another study and shows a few of its results, in no order."}
{"data": "Set 1", "target": "Sal-like protein 4, full length isoform A (SALL4, Homo sapiens, UniProt Q9UJQ4, residues 1-1053)", "method": "universal PBM", "molecule type": "double-stranded DNA, one strand shown", "sample": "in vitro", "tested at": "600 nM", "notes": "8-mer, flanks averaged, mean of replicates", "reading": "higher = stronger binding", "UniProt Q9UJQ4, sequence (whole entry, looked up)": "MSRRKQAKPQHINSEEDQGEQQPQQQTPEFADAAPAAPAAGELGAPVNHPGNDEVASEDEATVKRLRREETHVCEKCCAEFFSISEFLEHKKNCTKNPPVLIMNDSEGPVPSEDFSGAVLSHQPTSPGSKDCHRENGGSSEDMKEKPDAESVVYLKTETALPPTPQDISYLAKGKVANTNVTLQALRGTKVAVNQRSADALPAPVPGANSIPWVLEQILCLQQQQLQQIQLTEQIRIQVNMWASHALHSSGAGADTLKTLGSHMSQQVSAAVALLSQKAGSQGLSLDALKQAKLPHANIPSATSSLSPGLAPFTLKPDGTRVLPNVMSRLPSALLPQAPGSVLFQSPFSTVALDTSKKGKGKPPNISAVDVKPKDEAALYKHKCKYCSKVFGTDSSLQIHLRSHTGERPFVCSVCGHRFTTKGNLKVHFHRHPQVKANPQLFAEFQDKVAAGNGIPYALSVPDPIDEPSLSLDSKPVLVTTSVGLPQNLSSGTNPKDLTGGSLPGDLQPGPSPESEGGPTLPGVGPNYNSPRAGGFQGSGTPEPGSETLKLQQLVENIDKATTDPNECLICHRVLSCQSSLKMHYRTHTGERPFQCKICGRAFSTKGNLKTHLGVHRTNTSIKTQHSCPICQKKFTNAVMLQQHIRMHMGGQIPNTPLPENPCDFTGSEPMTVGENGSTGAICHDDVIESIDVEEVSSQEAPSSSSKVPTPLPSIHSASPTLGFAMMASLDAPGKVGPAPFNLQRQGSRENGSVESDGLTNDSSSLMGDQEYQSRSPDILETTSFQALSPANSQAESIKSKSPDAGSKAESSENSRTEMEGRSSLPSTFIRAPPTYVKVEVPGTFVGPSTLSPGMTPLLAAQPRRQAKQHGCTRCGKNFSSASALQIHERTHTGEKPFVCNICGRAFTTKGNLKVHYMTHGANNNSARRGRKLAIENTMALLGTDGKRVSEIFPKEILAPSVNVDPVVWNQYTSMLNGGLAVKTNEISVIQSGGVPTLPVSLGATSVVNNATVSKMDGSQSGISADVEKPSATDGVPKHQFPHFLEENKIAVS"}
{"Strand": "CTTCAGTC", "E-score": -0.0894}
{"Strand": "GTGCACTA", "E-score": 0.0562}
{"Strand": "AGACTCAC", "E-score": -0.208}
{"Strand": "GAACGGGA", "E-score": -0.159}
{"Strand": "CTCGAGCC", "E-score": -0.201}
{"Strand": "AAAGCTGG", "E-score": -0.113}
{"Strand": "GCAAACGC", "E-score": -0.125}
{"Strand": "AGCTTAAC", "E-score": 0.0727}
{"data": "Set 2", "target": "Histone acetyltransferase KAT6A, winged helix 2, GST fusion (KAT6A, Homo sapiens, UniProt Q92794, residues 85-181)", "method": "protein binding microarray", "molecule type": "double-stranded DNA, one strand shown", "sample": "in vitro", "tested at": "not given", "notes": "8-mer, flanks averaged, mean of 2 arrays, mostly near background", "baseline": "not given", "reading": "higher = stronger binding", "Construct (chain)": "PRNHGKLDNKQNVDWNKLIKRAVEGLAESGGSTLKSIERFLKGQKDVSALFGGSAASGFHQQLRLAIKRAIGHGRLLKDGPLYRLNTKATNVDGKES"}
{"Strand": "ACCCGCAC", "E-score": 0.0923}
{"Strand": "CCGCTCCG", "E-score": 0.211}
{"Strand": "ATACTTTA", "E-score": -0.0865}
{"Strand": "AGCTTAAT", "E-score": 0.0681}
{"Strand": "CGGTGTAA", "E-score": -0.0481}
{"Strand": "ATAGCCCA", "E-score": -0.0248}
{"Strand": "AACTCAGG", "E-score": 0.0869}
{"Strand": "AAAGATTC", "E-score": 0.0632}
{"data": "Set 3", "target": "Ras GTPase-activating protein-binding protein 1, full length (G3BP1, Homo sapiens, UniProt Q13283)", "method": "RNA Bind-n-Seq", "molecule type": "RNA", "sample": "in vitro", "tested at": "200 nM", "notes": "whole 134-nt RNA, ends assumed", "added": "150 mM KCl", "baseline": "input library", "reading": "higher = stronger binding", "UniProt Q13283, sequence (whole entry, looked up)": "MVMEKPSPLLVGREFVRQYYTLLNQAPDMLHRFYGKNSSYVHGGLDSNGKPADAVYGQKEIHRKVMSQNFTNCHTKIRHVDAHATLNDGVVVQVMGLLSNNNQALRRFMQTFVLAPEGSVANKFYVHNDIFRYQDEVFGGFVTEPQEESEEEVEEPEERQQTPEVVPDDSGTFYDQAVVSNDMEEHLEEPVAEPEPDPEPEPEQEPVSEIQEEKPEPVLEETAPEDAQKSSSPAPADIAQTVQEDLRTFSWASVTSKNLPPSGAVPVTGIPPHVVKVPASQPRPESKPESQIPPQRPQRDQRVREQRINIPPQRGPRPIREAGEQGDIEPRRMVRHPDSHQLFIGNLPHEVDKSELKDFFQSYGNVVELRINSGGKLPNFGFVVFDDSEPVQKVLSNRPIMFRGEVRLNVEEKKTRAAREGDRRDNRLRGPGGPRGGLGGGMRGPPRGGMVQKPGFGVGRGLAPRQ"}
{"Strand": "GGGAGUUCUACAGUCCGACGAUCAGUCCUGUGCUACACAUCGUAUGUACCGAAUCAAAUUUUUUUAAAUUUAAAUUUAAAAAAGUAUUAUGUUACGCCGUUCGGAUCUGCACUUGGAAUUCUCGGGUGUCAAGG", "log2 enrichment": -1.81}
{"Strand": "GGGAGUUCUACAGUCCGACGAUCGUCCUGUGCUACACAUCGUAUGUACCGAAUCGGGGUUUUUGGGGUUUUUGGGGAGGGGAAAGUAUUAUGUUACGCCGUUCGGAUCUGCACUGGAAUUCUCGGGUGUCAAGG", "log2 enrichment": 0.403}
{"Strand": "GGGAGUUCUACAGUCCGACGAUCAGUCCUGUGCUACACAUCGUAUGUACCGAAUCGGGGCCCCGGGGCCCCGGGCCCCGGGAAAGUAUUAUGUUACGCCGUUCGGAUCUGCACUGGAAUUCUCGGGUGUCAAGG", "log2 enrichment": -0.785}
{"Strand": "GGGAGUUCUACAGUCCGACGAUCCCUGUGCUACACAUCGUAUGUACCGAAUCGGGGAAAAAGGGGUUUUUUUGGGGAAAGGGGAAAGUAUUAUGUUACGCCGUUCGGAUCUGCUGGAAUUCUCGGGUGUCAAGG", "log2 enrichment": 0.402}
{"Strand": "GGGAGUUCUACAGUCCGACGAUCAGUCCUGUGCUACACAUCGUAUGUACCGAAUCGGAAAAAGGAAAAAAAGGUUUUUGGAAAGUAUUAUGUUACGCCGUUCGGAUCUGCACUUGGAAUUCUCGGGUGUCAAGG", "log2 enrichment": -1.74}
{"Strand": "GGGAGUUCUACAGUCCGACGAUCCAAGUCCUGUGCUACACAUCGUAUGUACCGAAUCGGGUGGGAAAGGGUUUUUGGGAAAGUAUUAUGUUACGCCGUUCGGAUCUGCACUUCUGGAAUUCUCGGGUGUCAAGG", "log2 enrichment": 0.407}
{"Strand": "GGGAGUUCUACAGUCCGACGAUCUUCAAGGAAAAACAAGAGGAGCAGGCUCGCCUCCUUGAUGAACUGGCAGGCAAGCUACAAAGCCUAGACCUUUCAGCCGCUGCCGAAAUGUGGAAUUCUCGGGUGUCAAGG", "log2 enrichment": -1.23}
{"Strand": "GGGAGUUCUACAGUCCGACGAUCGCAGGAAGUAAAAACAAAUGGAAAUGCUUCGGAUAUUGGCAGGGGUGGGGGUUGCUAAGGAAAGGGUGGGAUGGGAGUGGGUAAAGAGUUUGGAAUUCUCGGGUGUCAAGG", "log2 enrichment": 1.66}
{"data": "Further values, each from its own experiment"}
{"SMILES": "Cc1ccc2c(c1)NC(=O)c1cc(S(=O)(=O)N(C)C)c(Oc3ccccc3Br)cc1O2", "test system": "human, microsomes or S9", "setting": "2 µM, 0.5 h", "measurement": "remaining compound", "value": "0.777%"}
{"note": "Some of these lines once more (set 1):"}
{"Strand": "GTGCACTA", "E-score": 0.0562}
{"Strand": "AGACTCAC", "E-score": -0.208}
{"Strand": "GAACGGGA", "E-score": -0.159}
